Measured values from different studies.
Each line is one published result; not all experiments were run side by side.
Target: Serine/threonine-protein kinase WNK3 (WNK3, Homo sapiens, UniProt Q9BYP7)

| Structure (SMILES) | assay | setting | scale | measurement | value |
| --- | --- | --- | --- | --- | --- |
| CN1CCN(Cc2ccc(-c3ccc(CO[C@H]4CCC[C@@H]4NC(=O)c4cc(-c5cnn(C)c5)cnc4N)cc3)cc2)CC1 | enzyme activity, inhibitor | 0.1 µM | – | inhibition | -18% |
| COc1cc(Nc2nccc(-c3cnn4nc(OC)ccc34)n2)cc(C(F)(F)F)c1 | binding, competition with immobilised ligand | 1 µM | – | remaining binding | 78% |
| Cc1nc2c(F)cc(-c3nc(Nc4ccc(CNC(=O)CCCCCCC(=O)NO)cc4)ncc3F)cc2n1C(C)C | enzyme activity, inhibitor | 1 µM | – | inhibition | 48% |
| C=CC(=O)N1Cc2nc(-c3cc(-c4cc(Cl)cnc4Cl)c(F)cc3F)n(-c3ccncn3)c2C1 | cell-free assay, inhibitor | 1 µM | – | inhibition | 3.9% |
| CNC(=O)C[C@H](Cc1ccc(C#N)cc1)NC(=O)c1cc(-c2ccc(CN[C@H](C)c3ccc(C)cc3)o2)ccc1Cl | enzyme activity, inhibitor | 1 µM | – | activity vs control | 109% |
| O=C=[N][Ru-4]123([n]4c5ccc(O)cc5c5c6c(c7cc(F)c[n+]1c7c54)C(=O)NC6=O)[S+]1CC[S+]2CC[S+]3CC1 (stereo not shown) | enzyme activity | 100 nM, human enzyme, with: 10 µM ATP | relative to: untreated | remaining activity | 99% |
| Nc1ncc2c(n1)-c1c([nH]c3ccc(C4=CCOCC4)cc13)CCC2 | binding, competition with immobilised ligand | 1 µM | – | remaining binding | 87% |
| NC(=O)[C@@H](O)C[C@H]1CCc2sc3ncnc(O[C@H]4CC[C@H](N5CCOCC5)CC4)c3c21 | enzyme activity, inhibitor | 10 µM | – | inhibition | 8% |
| COc1c(Cl)cccc1Nc1c(-c2ccncc2C#C[C@@]2(C)CCCN2C(=O)/C=C/CN(C)C)[nH]c2c1C(=O)NCC2 | binding, competition with immobilised ligand | 3 µM | – | remaining binding | 100% |
| COc1ccc(NC(=O)Nc2ccc3c(c2)C(=O)N(C(C)CO)CC(C)C(CN(C)Cc2ccc4c(c2)OCO4)O3)cc1 (stereo not shown) | kinase activity, KinaseProfiler | 0.03 µM, species human | relative to: control | remaining activity | 102% |
| CN1CC[C@@H](COc2cnc(C#N)cc2-c2ccn3nc(NC(=O)C4CC4)cc3c2)C1 | enzyme activity, inhibitor | 1 µM | – | inhibition | -2% |
| CCN1CCN(Cc2ccc(C(=O)Nc3ccc(C)c(NCc4cnc5[nH]ccc5c4OC)c3)cc2C(F)(F)F)CC1 | binding, competition with immobilised ligand | 1 µM | – | remaining binding | 100% |
| C=CC(=O)N1CCCC(n2c(=O)c3ncccc3n(Cc3ccc(Oc4ccccc4)cc3)c2=O)C1 (stereo not shown) | cell-free assay, competition with immobilised ligand | 1 µM | – | remaining binding | 84% |
